Assay results from different studies.
Each numbered part is a random draw from the data of one study; scales do not carry over between parts. Values joined by “and” are separate records of one study, mostly repeats; a detail may differ.

Set 1 — technique: RNA Bind-n-Seq; molecule type: RNA; sample: in vitro; concentration: 365 nM; reference: no-protein control; reading: higher = stronger binding
Target: RNA binding protein fox-1 homolog 2, RRM domain, GST-SBP tag (RBFOX2, Homo sapiens, UniProt O43251-10, residues 100-194)
Notes: natural RNA segment, single round, ends assumed
Residues (chain): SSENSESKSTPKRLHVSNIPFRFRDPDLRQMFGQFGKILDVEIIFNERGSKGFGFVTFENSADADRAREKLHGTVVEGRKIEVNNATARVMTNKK
Sequence | RBNS enrichment (R)
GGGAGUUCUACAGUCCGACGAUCACCCGUCACAAUAAACCAUUCUCAAGUUAUCUAUGUGUGUGUGUAUAUAUAUCUCAGGUUUUUAGACUGGUUGACAGAACAAAGCCUGUUUUAACAGUGGAACCUUAAAGUGGAAUUCUCGGGUGCCAA | 0.347
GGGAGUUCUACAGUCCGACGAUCCCGCAUGCUCCCUACUCCCCCACGUCUUGAUGGAACAGGUGCAUUCAAGCUAGGAAACGGAGAGAACACAGCUUGUUCAAAAGGGUUGAAUUUGGGCUCAAUCCAUAAUUUGGAAUUCUCGGGUGCCAA | 3.95
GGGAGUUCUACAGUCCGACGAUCUGCCUCUUCUUUACCUCCCGCCUCUAUGGGGAUGACUUUUGAGGCCCCACCUGGGUCAAGGGUUCAGUAUUUUAGUCUAAAACUUCAGAAAGUCAAGCAUCACUUAAGACUGGAAUUCUCGGGUGCCAA | 0.751
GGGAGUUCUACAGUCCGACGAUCAAAUGUAUAAAUGUAUAUUGUAUUGUAUGUACAUUUUAUAUUCAUAAUAAAGGCAAUCAAACUCUAACCUCUAAGUCCUUCUAUAAGUGUGGUGGAAAUGUCCUAUGUGAUGGAAUUCUCGGGUGCCAA | 3.25
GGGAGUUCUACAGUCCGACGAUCUACCUUACUAGUAUGACUAUUAUCUUGACUUCUGGUAAUUUAUGUUCACUAUUCCAUUUGUGAAGUGUACUUUCAUUCUAAAGCCUCAGUAUAAGGCAUCCUAACUUACAUGGAAUUCUCGGGUGCCAA | 0.672
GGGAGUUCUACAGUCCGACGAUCGAUGAUGGUGACCGUGAAAGUGAAAUGGAAGGGAUGAGUGAAGAGGUUUUGGUUUGUUUGUUUGUUUUUUCUUUUUUUGAGGAAUUUUCAGGGAAGUGAGGAAACCCUUGUGGAAUUCUCGGGUGCCAA | 0.863
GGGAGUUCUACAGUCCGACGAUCAUCUGUGCCAAACAUAGGCGCUCCUAGUCUGGUCAGUGCCAAGAGGCUACCAGAACAUGGGGCAGGUGGCUGGUGUUGGUGUCCCAGCCUAAGAGCCACCUGCUGCAGUUUGGAAUUCUCGGGUGCCAA | 0.275
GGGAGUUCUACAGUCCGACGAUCUAAAAUAACCCAUUUGUUCACAGUUCUAAAACUAACUGGUUAAUAGGCUAAUGAUGUUCACUCAUUCUUUGAGGCAGUAGUUACCUAGGCAGACACUUUAGGUUGGUACUUGGAAUUCUCGGGUGCCAA | 0.355
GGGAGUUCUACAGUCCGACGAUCUGAGGAACUUCCAGCUUCAGAUUCUGUUACAAGUGUCACUUGCCAAAGGACCUUACUGUUCCUUCUAAGCAUCCCAGCACCUGGUGUGAUCUAGCUUUCCUCCACCCAUAUGGAAUUCUCGGGUGCCAA | 0.344
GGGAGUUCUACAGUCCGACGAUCCACAGCUUUAGUCACAAAAGUUAGUUUAGUUAUCUCAUUUCGCUUGGAGAUGGAAUUUCAGGAAGGGAUAUAUUAUUUAAGAUUAUUGUUUAAUUACAAGAAUUUUAAAAUGGAAUUCUCGGGUGCCAA | 0.823
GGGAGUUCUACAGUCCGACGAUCUAUGUUGAUGUAGCAUCAUUUUGUGGAUAGGAAAAAAAAUGUUUGACCUUCAGAUAUUUUCUACUUAAAAAAUUGUGGAUGAACGCCCUAUCUCCCUCCCACAGUGGAGUUGGAAUUCUCGGGUGCCAA | 0.393
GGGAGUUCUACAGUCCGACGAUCUAGGUUCAGCCAAGGUUUUAUAAGGCUGAUGUCAAUUUCUGUGUUGCCAAGCUCCAAGCCCCAUCUUCUAAAUGGCAAAGGAAGGUGGAUGGCCCCAGCACAGCUUGACCUGGAAUUCUCGGGUGCCAA | 0.376

Set 2 — technique: protein binding microarray; molecule type: double-stranded DNA, one strand shown; sample: in vitro; concentration: not given; reference: not given; reading: higher = stronger binding
Target: Histone acetyltransferase KAT6A, both winged helices, GST fusion (KAT6A, Homo sapiens, UniProt Q92794, residues 1-181)
Notes: 8-mer, flanks averaged, mean of 2 arrays, mostly near background
Residues (chain): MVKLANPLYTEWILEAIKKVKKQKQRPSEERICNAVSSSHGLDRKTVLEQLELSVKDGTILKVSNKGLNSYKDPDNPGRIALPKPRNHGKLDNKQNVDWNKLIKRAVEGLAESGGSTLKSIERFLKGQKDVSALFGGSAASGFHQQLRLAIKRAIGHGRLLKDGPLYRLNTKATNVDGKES
Sequence | E-score
CGTATGTA | 0.044
ATGACCCG | 0.125
ACGCCTGG | -0.0247
ACCAGGTG | -0.116
AGCGACTA | -0.13
TATAGGGA | -0.136
CTATTTGC | -0.153
GCAGGTAA | 0.017
CCAGTAAG | -0.118
CCGTATGA | 0.154
ACTCCTCG | -0.153
AACCAACT | -0.118
CCATCCGA | -0.16
AGGAGTCC | -0.0525
ATGGAATA | -0.0924
AGTTTATG | -0.137

Set 3 — technique: RNA Bind-n-Seq; molecule type: RNA; sample: in vitro; concentration: not given; reference: input RNA pool; reading: higher = stronger binding
Target: RING finger protein unkempt homolog, zinc fingers 1-6, GST-SBP tag (UNK, Homo sapiens, UniProt Q9C0B0, residues 30-357)
Sequence of UniProt Q9C0B0 (30-357, looked up): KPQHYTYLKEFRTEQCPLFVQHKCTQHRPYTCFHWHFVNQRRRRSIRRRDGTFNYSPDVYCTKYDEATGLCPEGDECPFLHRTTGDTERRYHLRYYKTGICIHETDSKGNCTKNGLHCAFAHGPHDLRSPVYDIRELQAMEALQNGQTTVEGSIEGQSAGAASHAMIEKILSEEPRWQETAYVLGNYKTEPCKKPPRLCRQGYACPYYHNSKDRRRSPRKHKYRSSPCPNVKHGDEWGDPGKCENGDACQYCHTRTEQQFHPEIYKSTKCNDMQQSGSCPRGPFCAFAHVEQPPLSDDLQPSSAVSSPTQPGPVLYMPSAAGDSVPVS
Notes: RNA with constant flanks, human-mouse chimeric sites, ends assumed
Sequence | bound/input enrichment [ratio]
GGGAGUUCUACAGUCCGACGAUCUCAGGAACUCAGACAAACAUGAAUGUAAAUGAAGUCAUUAGCAACAGAGCAAUUGAAAUGUUAGGAGGUGAACUUGGCAGCAAGAAGCCUGUGCACCCCAACGAUCAUGUUAACAAAAGCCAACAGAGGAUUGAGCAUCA | 0.147
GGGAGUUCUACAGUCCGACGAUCUUUGUAUUCAUGUUAAGCACACGUGCUGGUGGUCUGGGCAUCAAUCUUGCAACUGCUGAUGUAGUAAUUUUAUAUGACUCAGAUUGGAAUCCGCAAGUUGAUCUUCAGGCUAUGGACCGUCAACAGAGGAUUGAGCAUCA | 0.791
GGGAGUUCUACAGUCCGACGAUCUUCAAAGAAAAGGGCAGCUGUGUCAUUACUUGGGAGAAACUGCAUCCGGGAAAUUCUGUUCUUUUGUUUAAUUUUCCCCCAAAUGAAGCCAAAGUGUGUGUUGAAGAACUGAGAAAAAAUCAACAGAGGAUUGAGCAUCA | 0.163
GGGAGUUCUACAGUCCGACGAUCAACGUGGAACUAAGUUCGCUGGCCCGGCUUCCCAGCUUGAAUAAACUCCGGAAGUUGGAACUUAGUGACAAUAUAAUUUCUGGAGGCUUGGAAGUCCUGGCAGAGAAAUGUCCAAAUCUUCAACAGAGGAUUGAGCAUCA | 0.295
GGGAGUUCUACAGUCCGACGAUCAAGCAACGCAAACUUGAAACAAUUCGUUAUCUUGCAGCCUCAGUGUUCACUUGCUUGGCGAUAGCAUUGGGGUUUUAUAGGUUCUGGAAGGAGAACUUUAAUGCUCACUGCCGCUGCUGCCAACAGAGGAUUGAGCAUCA | 0.153
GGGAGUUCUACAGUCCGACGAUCUUUCUACUGCAGCAAACGAUGCUAAGAAUUAAGGAUCCUAAGAAGUCCCUGGAUUUUUAUACGAGGGUUCUUGGAAUGACCCUCCUGCAGAAGCUUGAUUUUCCCAUUAUGAAGUUCUCGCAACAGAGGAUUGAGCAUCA | 0.0808
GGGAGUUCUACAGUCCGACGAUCACAGUUAUAUUGUUGAGUUUCAUUUUCUUGUAUGUUUGUAGUGUCUGCUUGCCUGUGACUUCUGGUAAAAUAAGACUAGCCUUUGAAAAUAUUUUAGCAUGGUAUUUAACAUUUUCUAAACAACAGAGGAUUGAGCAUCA | 4.49
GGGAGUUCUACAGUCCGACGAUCUUUGUUUUUGUAACUUAUGUAAAAGGUUCCCCCCCCCACUGUCAAAAAAAUAUGCAUGUAUAGUAAUUAGGACUUCAUUCCUCCAUGUUUUCUUCCCUUAUCUUACUGUCAUUGUCCUUACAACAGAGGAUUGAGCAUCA | 2.54
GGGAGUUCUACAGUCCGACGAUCAAAGAGAAACUAAAGCAACUAAUAGAGAAGAGGAUUGGCAAAGAGAAUUUCAUAGAGAAACUAGGAUUUAUUAGCAAAACAUGAGUUGUAUUCCAGACGUCUCAGAAACCCCAGCCAAACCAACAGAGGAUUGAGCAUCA | 23.5
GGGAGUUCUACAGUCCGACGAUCUCUUUAAAUGCACUACAACCUUUUCUGACAGUGCUUUCCCUCCCAUAGAUCCACGUUCAAGCUCAAAGAGCAAAGGCUUUGCACGGAGCUCAAACAUCUGAUGAAGAAAGAUUUCUGAGACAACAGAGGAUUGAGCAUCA | 0.408
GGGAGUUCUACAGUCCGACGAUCAGGAGGAGGUUAAAGGGUGAGAGUGGGAUGGAGGAUUGUGUCAUGGCUCUGGAGACACUGUUCAGUGUCCUGCUUUCUCUGUGCAGACUGAUGGCCCCUUACACGCCUUUUCUCACUGAGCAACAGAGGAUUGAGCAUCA | 0.129

Other studies, line by line
Substance | target | assay | test system | conditions | how to read | measurement | result
PhoQ, residues 284 288 289 292 302 303 ASSHFY | PhoP, residues 12 14 15 18 19 LWHCS (Escherichia coli, UniProt P23836) | Sort-seq, refers to: YFP reporter | E. coli | PhoQ-PhoP variant library, together with: 10 µM Mg2+ | reference: high Mg2+ state, higher = stronger signaling | fold induction | 12.1 and 9.44

For quick reference, copied from above (set 2):
Sequence | E-score
ACGCCTGG | -0.0247
ACCAGGTG | -0.116
AGCGACTA | -0.13
TATAGGGA | -0.136
CTATTTGC | -0.153
GCAGGTAA | 0.017
CCAGTAAG | -0.118
